Experimental data gathered from unrelated publications.
Parts stem from different laboratories: compare values within a part only.

Series 1 — method: RNA Bind-n-Seq; molecule type: RNA; medium: in vitro; concentration: 365 nM; baseline: no-protein control; reading: higher = stronger binding
Target: RNA binding protein fox-1 homolog 2, RRM domain, GST-SBP tag (RBFOX2, Homo sapiens, UniProt O43251-10, residues 100-194)
Notes: natural RNA segment, single round, ends assumed
Shared flanks, not repeated: GGGAGUUCUACAGUCCGACGAUC … UGGAAUUCUCGGGUGCCAA
Construct (chain): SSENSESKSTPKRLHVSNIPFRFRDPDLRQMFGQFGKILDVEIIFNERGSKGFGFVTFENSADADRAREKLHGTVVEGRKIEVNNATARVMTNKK
`UGAAAUGUGUGUGAUGUGACAUUUGUCAUUUUCAUUAGCAAAAAAAGUUGUAUGAUCUGUGCCUUUUUUAUAUCUUGGCAGGUAGGAAUAUUAUAUUUGGAUGCAGAGUU` — result for “RBNS enrichment (R)”: 0.721.
`UCUGCACCCCACCCCUCACCCUUGUGCAGGGACAACUCCUUGCCCUGUGUUUCUUGGCCUCUAGACUCUAACAGGCAGAGUCUAGAGUAAGUUUUAGGGUCUGGGCUGAG`: “RBNS enrichment (R)” 0.346.
`AACCUGCUAGUGCACAGGCUGUACUUUAGGUACUUAAAAUAUGCACUAGAAUAAAUUUGCAAGGCCCUAAAAUAUCACUGUUAUUUUUGGAGUAAUUCAGUAUAGGUUCG` — result for “RBNS enrichment (R)”: 0.357.
`GGCUGGUCUCAGGCUGACACUCGAAGGGUAGUAGAAAUAUCCCUUCUGGCCUAUUGUCUGCUUCGCUGUGUAGGUAGCCUGACUUGACAGAGGUUUCUCCUGGUUUUCCU` — result for “RBNS enrichment (R)”: 0.2.
`CUAGCCCUUAGAACUACCACCCUGAAGCAUCUUUGUUUCCUGUGUUCAGACGCAGACGAAGACCAACAUUGUUUUAUAUGUUGAAUUUAUAAAAUGCUAGUAAUUUAGAA`: “RBNS enrichment (R)” 0.555.
Under “RBNS enrichment (R)”, `GUGCACAGUGCCCAAACAGCAAUAGAAAGGCUUACUUAUAACCAAACUCCAAGUGAUAGUGAGACCCAUCUCUCCUCUACCUUGAAGAGAGCAGAUCAUAGUAUAUGAGA` is recorded as 0.754.
For `CUGGCCGCAGGGAGUUGUUCUGCUUCUGCUUUACCUCUCAGGACCAUUCCCAGGAGGAAAAGGUGGCAGAGAGGGCAGUACUGAGUAUGUCAGAAGAGCCCUCCUGGUUU`, “RBNS enrichment (R)” read 0.19.
For `GAUGAAACUGGUCAGAAUCUGUAAAUUACUUAGUUUAUAUCCACUUUGAGCAGGUAUCAAAUGAUUUAGGAUCCUUAAAAUUACAUUCUAAUAAUUAAGUUAUGUGGAAA`, “RBNS enrichment (R)” read 0.295.
Under “RBNS enrichment (R)”, `CUCCUCUGGGUCACAUUGCUUCUUAUCCUGAACACUUGACACCUUGAGGGUAGAAUUUAGCGUUUGGUUUUUACCUCCUAGCAUAUGCUGUUUGGUAUGUGAGGGUUUCA` is recorded as 0.261.
`AAAAUAUAUCGUCCUAACAGUUAAAUUAACAAUCAAUCCAUAAAGUCCUAUAUCUUCAUUCAGCAACCCAAAUAUUACAUACAUUUCCAGAAUUUUCUUGAUUGUUACUU`: “RBNS enrichment (R)” 1.27.
`CAGCUCGGAUUAAGAAUAUGUUUCCUUGUUUAUCAGAUACAUCACUGCUUGAUGAAGCAAGGAAGAUAUACAUGAAAAUUUUAAAAAUACAUAUCGCUGACUUCAUGGAA` — result for “RBNS enrichment (R)”: 0.53.
For `UAGUAAUGGAUUCAGUACUCCUCAACUCCUAAUGAUUGAGAAGAAGGCAAACGAUAAAGAAAUCCCUCUAUUACACGAAUAAAAUGUUUAAGAAAAGAAAAAAGAAAGGA`, “RBNS enrichment (R)” read 0.826.

Series 2 — method: aptamer microarray, sandwich; molecule type: DNA with 2'F-ANA; medium: in vitro; concentration: 200 nM; together with: Cy3 exosite-II aptamer, 400 nM; reading: higher = stronger binding; strand: GGTTGGTGTGGTTGG
Target: Prothrombin, mature alpha-thrombin (F2, Homo sapiens, UniProt P00734)
Notes: whole 15-mer aptamer, many near background
Under “mean fluorescence intensity”, `2'F-ANA at 2 4 6 7 8 9 10 12 13 14 15` is recorded as 61.5 a.u.
`2'F-ANA at 3 7 8 9 11 12 14` — result for “mean fluorescence intensity”: 722 a.u.
Under “mean fluorescence intensity”, `2'F-ANA at 1 2 4 5 7 8 10 11 13` is recorded as 68.6 a.u.
Under “mean fluorescence intensity”, `2'F-ANA at 1 3 4 6 8 9 11 12 15` is recorded as 302 a.u.
`2'F-ANA at 1 2 4 9 10 12 14` — result for “mean fluorescence intensity”: 90.4 a.u.
`2'F-ANA at 1 4 5 8 11 12 15` — result for “mean fluorescence intensity”: 87.4 a.u.
For `2'F-ANA at 1 2 3 5 6 7 8 12`, “mean fluorescence intensity” read 137 a.u.
`2'F-ANA at 1 3 5 6 8 10 12 15` — result for “mean fluorescence intensity”: 50.2 a.u.
`2'F-ANA at 7 9 12 13 14` — result for “mean fluorescence intensity”: 229 a.u.
`2'F-ANA at 7 8 11 14` — result for “mean fluorescence intensity”: 225 a.u.
Under “mean fluorescence intensity”, `2'F-ANA at 1 5 8 9 10 14 15` is recorded as 97.1 a.u.
For `2'F-ANA at 1 3 6 7 10 12 13 14 15`, “mean fluorescence intensity” read 64.3 a.u.
`2'F-ANA at 2 3 5 7 9 14`: “mean fluorescence intensity” 73.8 a.u.
Under “mean fluorescence intensity”, `2'F-ANA at 1 2 4 6 10 13` is recorded as 54.9 a.u.
`2'F-ANA at 2 6 7 8 9 11 13` — result for “mean fluorescence intensity”: 327 a.u.
`2'F-ANA at 1 2 3 5 7 8 10 11 14` — result for “mean fluorescence intensity”: 47 a.u.
`2'F-ANA at 4 5 8 13 14`: “mean fluorescence intensity” 43.1 a.u.

Series 3 — method: RNA Bind-n-Seq; molecule type: RNA; medium: in vitro; concentration: 200 nM; notes: whole 134-nt RNA, ends assumed; together with: 150 mM LiCl; baseline: input library; reading: higher = stronger binding; each molecule: 7-deaza-guanosine replaces G
Target: Ras GTPase-activating protein-binding protein 1, full length (G3BP1, Homo sapiens, UniProt Q13283)
Sequence of UniProt Q13283 (whole entry, looked up): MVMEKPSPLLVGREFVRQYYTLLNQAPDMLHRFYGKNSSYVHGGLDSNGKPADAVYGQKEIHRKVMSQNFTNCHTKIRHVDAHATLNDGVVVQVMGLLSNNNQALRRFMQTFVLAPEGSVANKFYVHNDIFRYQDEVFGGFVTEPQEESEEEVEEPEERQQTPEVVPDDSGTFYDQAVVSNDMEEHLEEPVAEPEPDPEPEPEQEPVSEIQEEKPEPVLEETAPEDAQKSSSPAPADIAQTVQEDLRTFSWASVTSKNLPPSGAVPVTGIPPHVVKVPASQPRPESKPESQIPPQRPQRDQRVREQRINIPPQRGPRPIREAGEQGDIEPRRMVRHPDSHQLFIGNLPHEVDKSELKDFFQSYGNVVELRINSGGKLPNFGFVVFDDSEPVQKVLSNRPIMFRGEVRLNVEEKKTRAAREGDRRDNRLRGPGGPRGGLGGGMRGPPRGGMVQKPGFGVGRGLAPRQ
Shared flanks, not repeated: GGGAGUUCUACAGUCCGACGAUC … UGGAAUUCUCGGGUGUCAAGG
With `CAAGUCCUGUGCUACACAUCGUAUGUACCGAAUCGGGGUGGGGUUUGGGGAGGGGAAAGUAUUAUGUUACGCCGUUCGGAUCUGCACUUC` the log2 enrichment was -0.562.
With `AGUCCUGUGCUACACAUCGUAUGUACCGAAUCGGAAAAAAAGGUUUUUGGUUUUUGGAAAGUAUUAUGUUACGCCGUUCGGAUCUGCACU` the log2 enrichment was -2.74.
With `UUCUUACAUGUGUAAUCUUCUUCUCCUAGGGCGGCAGAACUCAUGACAAGAACAAGCUCUGUGGUGACACUGGAAGUAGCAAAGCAGGGU` the log2 enrichment was -0.19.
`ACCAUGCAGGUGGGCAUCUUUGGGAAGUCGGGCAAGGGGGGGAUAGGGAGGGGGGUAACACUUUGGGAACAGGUGGUCCCAGGUCGUUUC` gave a log2 enrichment of 0.992.
`UACAUUCUUUACCCCUUGUUUUAAUUUGAACCCCACCAUAUGGAUUUUUUUCCUUAAGAAAAUCUCCUUUUAGGAGAUCAUGGUGUCACA` has a log2 enrichment of 1.58.
`AAGUCCUGUGCUACACAUCGUAUGUACCGAAUCGGGGAAAGGAAAGGGGAAAGGGGAAAGUAUUAUGUUACGCCGUUCGGAUCUGCACUU` has a log2 enrichment of 0.417.
With `UGGGAGGUGGAUUUUGUUUAUUUUUUUAGCUCAUUUCCAGCGGUGGGAAUUUUUUUUUAAUAUGUGUCAUGAAUAAAGUUGUUUUUGAAA` the log2 enrichment was -0.205.
For `UCCCUGAGACGGCGGGCAACAGCAUCGGCAGGAACGCCAUGGCCGUCCCCUCCCAGCUCUUACCUUACCAUCGACCUCACAGACGACACA`, the log2 enrichment was 1.21.
With `UAACUUUAGAGGAGGAUCUGAUGGAUAUGGCAGUGGACGUGGAUUUGGCGAUGGCUAUAAUGGGUAUGGAGGAGGACCUGGAGGUGGCAA` the log2 enrichment was -0.00385.
For `CACAGACAACACGCACCCACACAGACACAGAGGGAAGGGGUUGGGAUGGUGACAGGGUGCACAGCAGGGCGGGGUAGGACCCCAGCCCCU`, the log2 enrichment was 0.0237.
`AAGUCCUGUGCUACACAUCGUAUGUACCGAAUCGGGUUUGGGGUUUGGGGUUUGGGGAAAGUAUUAUGUUACGCCGUUCGGAUCUGCACU` has a log2 enrichment of -0.638.

Series 4 — method: protein binding microarray; molecule type: double-stranded DNA, one strand shown; medium: in vitro; concentration: not given; baseline: not given; reading: higher = stronger binding
Target: Histone acetyltransferase KAT6A, winged helix 1, GST fusion (KAT6A, Homo sapiens, UniProt Q92794, residues 1-85)
Notes: 8-mer, flanks averaged, mean of 2 arrays, mostly near background
Target sequence (chain): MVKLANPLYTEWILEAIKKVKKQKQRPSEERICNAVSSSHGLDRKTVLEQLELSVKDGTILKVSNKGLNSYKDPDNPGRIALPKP
With `AGCGCCAT` the E-score was 0.242.
`ATACTCAG` gave an E-score of 0.0412.
For `ATTGGGTA`, the E-score was -0.258.
With `AGTTGGAA` the E-score was -0.109.
The E-score of `ACCGGAGG` is reported as 0.119.
`GCCTTACA` has an E-score of -0.125.
`TAAAATCA` has an E-score of -0.254.
For `CTGATAAG`, the E-score was -0.169.
With `GAAGATTC` the E-score was -0.0258.
`CATATGGC` gave an E-score of -0.0191.
For `AAATTGTT`, the E-score was -0.202.
`TATAGCAA` gave an E-score of -0.0033.
With `GAACGTCC` the E-score was -0.0435.
`CTCCCTGA` gave an E-score of -0.183.
With `ATTTGTAC` the E-score was -0.0971.
`ACAGCGAT` gave an E-score of -0.0119.
For `CCCCATCA`, the E-score was -0.262.
The E-score of `CGCAATTC` is reported as 0.263.
The E-score of `ACTGCCTA` is reported as -0.229.
`CCTCCAAG` gave an E-score of -0.206.
With `CGCGTCAA` the E-score was 0.289.
For `GCACAACA`, the E-score was -0.131.
With `TCTCAAAA` the E-score was -0.215.
With `GACTGTTA` the E-score was -0.0112.
With `CTCATCTC` the E-score was -0.14.

Repeated from above (series 4):
`TAAAATCA` has an E-score of -0.254.
For `CTGATAAG`, the E-score was -0.169.
With `GAAGATTC` the E-score was -0.0258.
`CATATGGC` gave an E-score of -0.0191.
For `AAATTGTT`, the E-score was -0.202.
`TATAGCAA` gave an E-score of -0.0033.
With `GAACGTCC` the E-score was -0.0435.
